Published values from different studies.
Parts stem from different laboratories: compare values within a part only.

Study 1 — method: protein-binding microarray; molecule type: double-stranded DNA, one strand shown; medium: in vitro; tested at: 0.8 µM; notes: whole 60-bp probe, no competitor; reading: higher = stronger binding; constant ends, left off below: … GTCTTGATTCGCTTGACGCTGCTG
Target: Centromere-binding protein 1, full length, N-terminal tag (CBF1, Saccharomyces cerevisiae, UniProt P17106, residues 1-351)
Sequence of UniProt P17106 (whole entry, looked up): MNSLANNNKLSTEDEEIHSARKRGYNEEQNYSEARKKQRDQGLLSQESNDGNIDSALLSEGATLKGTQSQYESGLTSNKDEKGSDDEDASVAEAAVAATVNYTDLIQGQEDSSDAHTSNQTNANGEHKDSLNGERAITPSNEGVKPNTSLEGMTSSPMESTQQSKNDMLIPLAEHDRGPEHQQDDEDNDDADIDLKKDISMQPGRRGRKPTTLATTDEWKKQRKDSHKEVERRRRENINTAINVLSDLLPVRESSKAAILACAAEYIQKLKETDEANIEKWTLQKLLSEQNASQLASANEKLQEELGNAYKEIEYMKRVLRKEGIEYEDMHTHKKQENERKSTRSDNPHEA
| Strand | fluorescence intensity [a.u.] |
| --- | --- |
| GAAGATGCATCTTTTCACATGGTCCACTGTTTTTAG | 599 |
| GAATTGAGGAGAGACATGATGATGGTTCTCTGGTAG | 536 |
| CTACACGTATATATTCACCTCACAAATAATATCTTC | 517 |
| CTAATCGGAAAATATCACGTTGTACGTAACAATTTC | 1120 |
| GAAAAAATAATTTTTGGTGTCACTTCCATCGTATAG | 512 |

Study 2 — method: universal PBM; molecule type: double-stranded DNA, one strand shown; medium: in vitro; tested at: not given; reading: higher = stronger binding
Target: Sal-like protein 4, full length isoform B (SALL4, Homo sapiens, UniProt Q9UJQ4-2, residues 1-616)
Notes: 8-mer, flanks averaged, mean of replicates
| Strand | E-score |
| --- | --- |
| ATCTTAGC | 0.0369 |
| CACCGTCC | -0.244 |
| ATACGGTC | -0.0199 |
| ATGTGTCG | 0.0407 |
| CAACCTCC | -0.104 |
| GGCGGCAC | -0.212 |
| ATGGAACA | 0.0398 |
| ACATCGCC | -0.0679 |
| CAGGCGCA | -0.246 |

Study 3 — method: protein binding microarray; molecule type: double-stranded DNA, one strand shown; medium: in vitro; tested at: not given; reference: not given; reading: higher = stronger binding
Target: Histone acetyltransferase KAT6A, winged helix 1, GST fusion (KAT6A, Homo sapiens, UniProt Q92794, residues 1-85)
Notes: 8-mer, flanks averaged, mean of 2 arrays, mostly near background
Construct (chain): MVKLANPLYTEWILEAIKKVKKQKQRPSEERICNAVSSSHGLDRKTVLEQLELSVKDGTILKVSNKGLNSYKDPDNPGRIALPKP
| Strand | E-score |
| --- | --- |
| CCAATCTC | -0.347 |
| ATCAACGC | -0.0102 |
| CAAATTCG | -0.0385 |
| CTTTAACC | -0.0612 |
| GAAAAGTA | -0.153 |
| GCATTAAA | -0.245 |
| CATGCCGG | 0.345 |
| GGCGAGAA | 0.0325 |
| CCGGTAGA | 0.263 |

Single results of other studies
| Substance | target | assay | test system | setting | how to read | quantity | result |
| --- | --- | --- | --- | --- | --- | --- | --- |
| PhoQ, residues 284 288 289 292 302 303 GANMMA | PhoP, residues 12 14 15 18 19 TQAIL (Escherichia coli, UniProt P23836) | Sort-seq, item: YFP reporter | E. coli | PhoQ-PhoP variant library, with: 10 µM Mg2+ | reference: high Mg2+ state, higher = stronger signaling | fold induction | 3.58 |

Repeated from above (study 3):
| Strand | E-score |
| --- | --- |
| CAAATTCG | -0.0385 |
| CTTTAACC | -0.0612 |
| CCGGTAGA | 0.263 |
| ATCAACGC | -0.0102 |
